Measurements gathered from unrelated publications.
Lines come from different studies, so protocols differ. Values joined by “and” are separate records of one study, mostly repeats; a detail may differ. pKi: −log10 of the molar value.
ADRA1B: Alpha-1B adrenergic receptor (ADRA1B, Homo sapiens, UniProt P35368)
Chain of UniProt P35368 (whole entry, looked up): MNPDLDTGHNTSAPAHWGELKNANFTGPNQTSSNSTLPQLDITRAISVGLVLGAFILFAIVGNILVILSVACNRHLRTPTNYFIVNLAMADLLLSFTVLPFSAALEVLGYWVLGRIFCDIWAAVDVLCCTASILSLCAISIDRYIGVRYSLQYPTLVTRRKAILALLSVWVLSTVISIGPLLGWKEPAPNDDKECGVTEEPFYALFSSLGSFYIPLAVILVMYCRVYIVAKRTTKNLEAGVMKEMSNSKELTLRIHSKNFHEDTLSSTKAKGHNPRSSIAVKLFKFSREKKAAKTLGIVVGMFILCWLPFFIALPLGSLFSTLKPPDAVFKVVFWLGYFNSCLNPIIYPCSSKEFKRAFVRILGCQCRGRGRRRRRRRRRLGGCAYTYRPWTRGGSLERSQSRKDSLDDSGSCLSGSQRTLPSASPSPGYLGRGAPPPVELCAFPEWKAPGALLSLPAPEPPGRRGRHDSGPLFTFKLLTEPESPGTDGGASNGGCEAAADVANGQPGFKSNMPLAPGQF
SLC6A3: Sodium-dependent dopamine transporter (SLC6A3, Homo sapiens, UniProt Q01959)
Chain of UniProt Q01959 (whole entry, looked up): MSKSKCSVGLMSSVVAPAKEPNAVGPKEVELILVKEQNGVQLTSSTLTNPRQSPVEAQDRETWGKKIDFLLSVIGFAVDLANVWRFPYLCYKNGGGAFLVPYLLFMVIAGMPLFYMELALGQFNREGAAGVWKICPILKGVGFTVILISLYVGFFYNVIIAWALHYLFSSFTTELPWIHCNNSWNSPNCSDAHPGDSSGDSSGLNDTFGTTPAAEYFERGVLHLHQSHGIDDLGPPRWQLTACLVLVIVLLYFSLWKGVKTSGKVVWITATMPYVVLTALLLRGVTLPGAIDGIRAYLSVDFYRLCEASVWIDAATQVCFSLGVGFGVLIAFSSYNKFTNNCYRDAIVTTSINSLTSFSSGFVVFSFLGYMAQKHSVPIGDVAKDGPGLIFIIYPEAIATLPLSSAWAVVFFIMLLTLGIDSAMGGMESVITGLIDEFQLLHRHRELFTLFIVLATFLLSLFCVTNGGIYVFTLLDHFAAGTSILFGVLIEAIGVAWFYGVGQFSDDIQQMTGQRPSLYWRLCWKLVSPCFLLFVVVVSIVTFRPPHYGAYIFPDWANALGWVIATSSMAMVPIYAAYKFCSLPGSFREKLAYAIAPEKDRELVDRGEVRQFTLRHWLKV
PLEKHA3: PLEKHA3 (Homo sapiens, UniProt Q9HB20)
Chain of UniProt Q9HB20 (whole entry, looked up): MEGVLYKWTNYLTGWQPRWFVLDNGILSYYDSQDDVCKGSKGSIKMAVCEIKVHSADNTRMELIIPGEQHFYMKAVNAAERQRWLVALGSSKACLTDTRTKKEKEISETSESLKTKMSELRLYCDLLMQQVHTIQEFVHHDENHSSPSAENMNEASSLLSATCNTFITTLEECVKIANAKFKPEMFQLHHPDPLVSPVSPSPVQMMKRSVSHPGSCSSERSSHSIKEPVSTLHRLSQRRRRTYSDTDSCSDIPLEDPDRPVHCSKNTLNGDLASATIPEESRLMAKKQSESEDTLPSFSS
ADRA2A: Alpha-2A adrenergic receptor (ADRA2A, Homo sapiens, UniProt P08913)
Chain of UniProt P08913 (whole entry, looked up): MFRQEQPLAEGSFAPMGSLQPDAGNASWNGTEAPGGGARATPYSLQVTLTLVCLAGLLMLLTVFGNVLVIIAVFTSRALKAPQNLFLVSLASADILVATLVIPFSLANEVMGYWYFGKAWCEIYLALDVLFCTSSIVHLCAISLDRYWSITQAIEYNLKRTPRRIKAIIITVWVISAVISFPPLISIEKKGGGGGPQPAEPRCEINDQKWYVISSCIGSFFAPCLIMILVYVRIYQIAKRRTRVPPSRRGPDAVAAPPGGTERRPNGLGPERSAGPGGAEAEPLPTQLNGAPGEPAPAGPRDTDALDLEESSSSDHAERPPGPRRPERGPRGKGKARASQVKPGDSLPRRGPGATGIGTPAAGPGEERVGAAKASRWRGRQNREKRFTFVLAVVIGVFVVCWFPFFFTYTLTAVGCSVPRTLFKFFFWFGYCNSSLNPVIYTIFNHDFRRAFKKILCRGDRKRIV
HTR2B: 5-hydroxytryptamine receptor 2B (HTR2B, Homo sapiens, UniProt P41595)
Chain of UniProt P41595 (whole entry, looked up): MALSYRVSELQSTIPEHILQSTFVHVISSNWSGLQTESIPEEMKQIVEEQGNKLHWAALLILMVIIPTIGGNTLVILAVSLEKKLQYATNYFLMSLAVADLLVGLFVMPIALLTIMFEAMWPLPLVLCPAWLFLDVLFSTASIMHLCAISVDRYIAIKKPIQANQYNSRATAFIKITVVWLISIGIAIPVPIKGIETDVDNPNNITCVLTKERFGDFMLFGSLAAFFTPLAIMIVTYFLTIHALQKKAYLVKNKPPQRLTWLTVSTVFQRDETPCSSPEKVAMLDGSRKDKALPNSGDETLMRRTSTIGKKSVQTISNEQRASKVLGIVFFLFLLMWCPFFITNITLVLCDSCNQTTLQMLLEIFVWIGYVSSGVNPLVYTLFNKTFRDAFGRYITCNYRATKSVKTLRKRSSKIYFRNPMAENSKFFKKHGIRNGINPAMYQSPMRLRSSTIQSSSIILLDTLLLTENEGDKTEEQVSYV
Chain of UniProt P48147 (whole entry, looked up): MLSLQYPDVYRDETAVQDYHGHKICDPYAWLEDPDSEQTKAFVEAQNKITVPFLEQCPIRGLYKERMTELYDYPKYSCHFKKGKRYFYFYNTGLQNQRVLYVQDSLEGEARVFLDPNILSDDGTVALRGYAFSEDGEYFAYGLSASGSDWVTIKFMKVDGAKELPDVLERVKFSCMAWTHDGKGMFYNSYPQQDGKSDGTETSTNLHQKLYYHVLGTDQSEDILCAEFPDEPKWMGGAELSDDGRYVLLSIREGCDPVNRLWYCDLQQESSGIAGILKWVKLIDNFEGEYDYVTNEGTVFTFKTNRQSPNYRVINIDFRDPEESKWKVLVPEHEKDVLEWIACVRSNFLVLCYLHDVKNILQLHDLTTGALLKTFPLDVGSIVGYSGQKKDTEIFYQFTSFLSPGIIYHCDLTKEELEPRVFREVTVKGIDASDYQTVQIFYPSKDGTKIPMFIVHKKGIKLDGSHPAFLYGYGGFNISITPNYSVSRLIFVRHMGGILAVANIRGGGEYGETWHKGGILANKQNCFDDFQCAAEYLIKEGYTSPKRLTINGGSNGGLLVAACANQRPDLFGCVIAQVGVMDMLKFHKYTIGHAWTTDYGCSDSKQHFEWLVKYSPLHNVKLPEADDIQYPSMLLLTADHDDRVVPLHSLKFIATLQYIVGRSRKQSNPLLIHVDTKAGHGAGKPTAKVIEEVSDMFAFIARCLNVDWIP
Chain of UniProt Q92769 (whole entry, looked up): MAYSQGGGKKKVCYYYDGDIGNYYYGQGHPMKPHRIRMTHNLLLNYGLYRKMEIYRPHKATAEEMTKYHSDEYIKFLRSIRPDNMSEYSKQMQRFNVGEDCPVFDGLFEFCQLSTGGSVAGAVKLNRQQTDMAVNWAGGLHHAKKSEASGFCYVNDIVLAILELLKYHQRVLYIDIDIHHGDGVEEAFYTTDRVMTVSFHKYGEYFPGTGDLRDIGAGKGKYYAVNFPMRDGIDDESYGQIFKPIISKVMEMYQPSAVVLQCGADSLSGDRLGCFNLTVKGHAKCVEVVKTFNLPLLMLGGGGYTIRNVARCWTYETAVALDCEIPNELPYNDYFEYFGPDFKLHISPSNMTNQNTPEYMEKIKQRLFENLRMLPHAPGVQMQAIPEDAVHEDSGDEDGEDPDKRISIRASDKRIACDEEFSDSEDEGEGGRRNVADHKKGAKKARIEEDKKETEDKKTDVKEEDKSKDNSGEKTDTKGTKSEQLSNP
Chain of UniProt P10632 (whole entry, looked up): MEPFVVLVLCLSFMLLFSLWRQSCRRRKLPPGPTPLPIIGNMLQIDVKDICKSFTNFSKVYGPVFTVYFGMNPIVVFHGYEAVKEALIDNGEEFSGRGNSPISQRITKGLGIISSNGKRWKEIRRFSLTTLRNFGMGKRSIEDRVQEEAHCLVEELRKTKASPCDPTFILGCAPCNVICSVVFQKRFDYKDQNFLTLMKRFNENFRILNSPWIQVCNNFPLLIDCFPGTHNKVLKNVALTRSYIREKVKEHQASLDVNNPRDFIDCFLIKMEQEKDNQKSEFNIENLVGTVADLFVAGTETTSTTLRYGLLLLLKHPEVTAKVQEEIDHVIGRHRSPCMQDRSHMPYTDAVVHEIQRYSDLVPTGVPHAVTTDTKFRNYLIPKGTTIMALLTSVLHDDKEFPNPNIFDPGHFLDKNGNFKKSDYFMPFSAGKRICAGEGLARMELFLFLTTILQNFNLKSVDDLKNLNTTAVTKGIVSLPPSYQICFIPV
Chain of UniProt P11712 (whole entry, looked up): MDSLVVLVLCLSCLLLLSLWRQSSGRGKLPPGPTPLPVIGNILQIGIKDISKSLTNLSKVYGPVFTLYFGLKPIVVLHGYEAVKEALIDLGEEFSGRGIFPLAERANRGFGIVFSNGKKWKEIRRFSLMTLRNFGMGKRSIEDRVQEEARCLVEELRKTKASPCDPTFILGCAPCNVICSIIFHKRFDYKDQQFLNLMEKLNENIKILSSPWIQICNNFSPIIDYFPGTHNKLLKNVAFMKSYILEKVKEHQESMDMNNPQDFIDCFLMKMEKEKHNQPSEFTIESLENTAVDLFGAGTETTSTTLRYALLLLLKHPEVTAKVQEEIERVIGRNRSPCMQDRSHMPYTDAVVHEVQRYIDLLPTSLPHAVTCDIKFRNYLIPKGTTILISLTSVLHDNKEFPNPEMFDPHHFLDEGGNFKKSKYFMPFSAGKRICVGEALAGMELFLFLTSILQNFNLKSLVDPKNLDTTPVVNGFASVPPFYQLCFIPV
Chain of UniProt P48039 (whole entry, looked up): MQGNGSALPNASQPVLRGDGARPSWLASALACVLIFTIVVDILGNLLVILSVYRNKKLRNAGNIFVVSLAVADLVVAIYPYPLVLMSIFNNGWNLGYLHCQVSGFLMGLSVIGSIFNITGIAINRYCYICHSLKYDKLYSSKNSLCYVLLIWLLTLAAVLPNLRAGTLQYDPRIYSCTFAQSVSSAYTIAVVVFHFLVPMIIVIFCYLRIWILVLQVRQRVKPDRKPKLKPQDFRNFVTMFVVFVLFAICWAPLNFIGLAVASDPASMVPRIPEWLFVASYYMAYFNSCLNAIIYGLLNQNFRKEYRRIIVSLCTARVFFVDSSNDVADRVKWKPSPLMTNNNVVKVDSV

Compound | target | assay | system | pKi
Cn1cncc1[C@@](N)(c1ccc(Cl)cc1)c1ccc2c(c1)c(-c1cccc(Cl)c1)cc(=O)n2C | Cytochrome P450 2C8 (CYP2C8, Homo sapiens, UniProt P10632) | enzyme activity, inhibitor | human, liver microsomes | 5.94
O=C(NO)c1cncc(OS(=O)(=O)Oc2ccc(-n3ccnc3)cc2)c1 | Histone deacetylase 2 (HDAC2, Homo sapiens, UniProt Q92769) | enzyme activity, inhibitor, fluorescence |  | 6.50
COc1ccc(N2CCN(Cc3cccnc3Oc3ccc(-c4c(C)c(=O)[nH]c(=O)n4C)c(C)c3)CC2)cc1 | ADRA1B | ligand displacement, radioligand |  | 5.54
CCOC(=O)C12CC1C(n1ccc3c(NCCCc4ccccc4)nc(C#Cc4ccc(Cl)s4)nc31)C(O)C2O (centres unmarked) | SLC6A3 | ligand displacement, radioligand |  | 5.28
CCOc1ccc(C(=O)CC(SCc2ccccc2Br)C(=O)O)cc1 (centres unmarked) | PLEKHA3 | ligand displacement, FP |  | 5.00
Cc1cc(Oc2ncccc2CN2CCN(c3ccc(C(F)(F)F)cc3[N+](=O)[O-])CC2)ccc1-c1c(C)c(=O)[nH]c(=O)n1C | ADRA2A | ligand displacement, radioligand |  | 5.50
CO[C@]1(C(=O)N[C@@H](C)c2ccc(-n3cc(F)cn3)nc2)CC[C@H](c2nc(C)cc(Nc3cc(C)[nH]n3)n2)CC1 | Cytochrome P450 2C9 (CYP2C9, Homo sapiens, UniProt P11712) | enzyme activity, inhibitor | human, liver microsomes | 5.39
CC(C)[C@@H](Nc1nc(Cl)nc2c1ncn2[C@H]1[C@H](O)[C@H](O)[C@]2(C#N)C[C@H]12)C1CC1 | HTR2B | ligand displacement, radioligand |  | 7.67
Cc1ccc2oc(=O)cc(NCCO)c2c1 | ADRA1B | ligand displacement in cells |  | 4.76
Cc1cc(Oc2ncccc2CN2CCN(c3ccc(F)cc3F)CC2)ccc1-c1c(C)c(=O)[nH]c(=O)n1C | ADRA1B | ligand displacement, radioligand |  | 5.54
CC(C)c1ccc(CNc2cccc(-c3nnc[nH]3)c2)cc1 | Melatonin receptor type 1A (MTNR1A, Homo sapiens, UniProt P48039) | cell-free assay |  | 6.07
CCCNc1nc(I)nc2c1ncn2[C@H]1[C@H](O)[C@H](O)[C@]2(C#N)C[C@H]12 | HTR2B | ligand displacement, radioligand |  | 7.40
Cc1cc(Oc2ncccc2CN2CCN(c3ccccc3Cl)CC2)ccc1-c1c(C)c(=O)[nH]c(=O)n1C | ADRA1B | ligand displacement, radioligand |  | 6.02
N#CC[C@@]12C[C@@H]1[C@@H](n1cnc3c(Nc4ccccc4)nc(I)nc31)[C@H](O)[C@@H]2O | SLC6A3 | ligand displacement, radioligand |  | 5.92
N#C[C@@]12C[C@@H]1[C@@H](n1cnc3c(N[C@H](C4CCC4)C4CC4)nc(I)nc31)[C@H](O)[C@@H]2O | HTR2B | ligand displacement, radioligand |  | 7.66
CCOc1cccc(C(=O)CC(SCc2ccc(Cl)cc2)C(=O)O)c1 (centres unmarked) | PLEKHA3 | ligand displacement, FP |  | 5.27
Cc1nn(CCc2ccccc2)c2ncc(C(=O)NCc3cccnc3)c(Cl)c12 | Prolyl endopeptidase (PREP, Homo sapiens, UniProt P48147) | enzyme activity, inhibitor, fluorescence |  | 4.74
Cc1cc(Oc2ncccc2CN2CCN(c3ccccc3C)CC2)ccc1-c1c(C)c(=O)[nH]c(=O)n1C | ADRA1B | ligand displacement, radioligand |  | 5.90
N#C[C@@]12C[C@@H]1[C@@H](n1cnc3c(NC45CC(C4)C5)nc(I)nc31)[C@H](O)[C@@H]2O | HTR2B | ligand displacement, radioligand |  | 7.71
COc1ccccc1C(=O)CC(SCc1ccc(Cl)cc1)C(=O)O (centres unmarked) | PLEKHA3 | ligand displacement, FP |  | 4.75
COc1ccccc1N1CCN(Cc2cccnc2Oc2ccc(-c3c(C)c(=O)[nH]c(=O)n3C)c(C)c2)CC1 | ADRA2A | ligand displacement, radioligand |  | 7.48 and 7.47
CCOc1ccc(C(=O)CC(SCc2ccccc2)C(=O)O)cc1 (centres unmarked) | PLEKHA3 | ligand displacement, FP |  | 4.57
Cc1cc(Oc2ncccc2CN2CCN(c3ccccc3)CC2)ccc1-c1c(C)c(=O)[nH]c(=O)n1C | ADRA2A | ligand displacement, radioligand |  | 7.25

Repeated from above:
Compound | target | assay | system | pKi
CCOc1ccc(C(=O)CC(SCc2ccccc2Br)C(=O)O)cc1 (centres unmarked) | PLEKHA3 | ligand displacement, FP |  | 5.00
